Measurements of several laboratories.
A part holds a random share of what one study measured. Substitutions count along the parent as printed.
Chain of UniProt O00762 (whole entry, looked up): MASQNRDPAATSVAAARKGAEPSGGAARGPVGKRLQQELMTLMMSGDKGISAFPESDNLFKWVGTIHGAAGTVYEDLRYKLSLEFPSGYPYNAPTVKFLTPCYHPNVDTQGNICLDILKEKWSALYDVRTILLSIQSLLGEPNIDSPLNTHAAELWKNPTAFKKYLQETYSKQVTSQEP
Chain of UniProt P63146 (whole entry, looked up): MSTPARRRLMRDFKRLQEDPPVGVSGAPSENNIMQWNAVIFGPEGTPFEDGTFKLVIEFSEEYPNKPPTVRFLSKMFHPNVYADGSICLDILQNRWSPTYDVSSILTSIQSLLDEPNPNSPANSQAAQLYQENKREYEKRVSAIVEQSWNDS
Chain of UniProt Q9Y2X8 (whole entry, looked up): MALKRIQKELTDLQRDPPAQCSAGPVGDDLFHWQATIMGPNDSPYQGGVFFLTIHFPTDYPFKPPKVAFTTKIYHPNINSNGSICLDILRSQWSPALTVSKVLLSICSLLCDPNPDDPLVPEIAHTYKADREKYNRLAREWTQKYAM
Chain of UniProt P61081 (whole entry, looked up): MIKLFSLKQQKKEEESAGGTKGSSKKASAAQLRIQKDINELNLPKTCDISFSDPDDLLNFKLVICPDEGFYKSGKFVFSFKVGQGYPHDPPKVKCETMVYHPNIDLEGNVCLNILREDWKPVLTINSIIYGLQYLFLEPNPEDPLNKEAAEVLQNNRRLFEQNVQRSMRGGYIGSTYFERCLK
Chain of UniProt Q8N2K1 (whole entry, looked up): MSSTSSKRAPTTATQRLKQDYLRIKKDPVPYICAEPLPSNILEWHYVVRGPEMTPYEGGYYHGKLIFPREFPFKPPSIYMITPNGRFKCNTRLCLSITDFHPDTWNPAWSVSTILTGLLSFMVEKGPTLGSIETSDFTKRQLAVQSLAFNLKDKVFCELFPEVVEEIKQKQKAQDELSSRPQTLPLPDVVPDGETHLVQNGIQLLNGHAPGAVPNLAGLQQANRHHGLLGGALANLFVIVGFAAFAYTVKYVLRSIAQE
Chain of UniProt P62837 (whole entry, looked up): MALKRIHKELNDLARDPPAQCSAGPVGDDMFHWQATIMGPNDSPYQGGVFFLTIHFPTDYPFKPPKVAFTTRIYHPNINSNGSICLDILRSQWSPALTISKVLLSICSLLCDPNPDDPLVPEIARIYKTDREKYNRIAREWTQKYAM
Chain of UniProt P68036 (whole entry, looked up): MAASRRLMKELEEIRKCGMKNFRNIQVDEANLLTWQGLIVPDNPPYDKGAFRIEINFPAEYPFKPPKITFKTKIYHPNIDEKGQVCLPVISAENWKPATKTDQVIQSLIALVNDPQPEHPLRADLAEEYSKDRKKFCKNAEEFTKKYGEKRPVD
Chain of UniProt Q9NPD8 (whole entry, looked up): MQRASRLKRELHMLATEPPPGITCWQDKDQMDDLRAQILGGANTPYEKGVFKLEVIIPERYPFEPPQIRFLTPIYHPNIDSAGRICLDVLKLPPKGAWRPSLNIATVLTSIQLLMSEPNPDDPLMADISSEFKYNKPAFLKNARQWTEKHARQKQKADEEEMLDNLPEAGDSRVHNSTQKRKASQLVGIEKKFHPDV

Block 1
Target: Hepatocyte nuclear factor 3-beta, forkhead domain (FOXA2, Homo sapiens, UniProt Q9Y261, residues 142-269)
Technique: protein-binding microarray
Molecule type: hairpin DNA
Sample: in vitro
Tested at: not given
Notes: whole hairpin DNA, median over replicate spots
Relative to: not given
Direction: higher = stronger binding
Construct (chain): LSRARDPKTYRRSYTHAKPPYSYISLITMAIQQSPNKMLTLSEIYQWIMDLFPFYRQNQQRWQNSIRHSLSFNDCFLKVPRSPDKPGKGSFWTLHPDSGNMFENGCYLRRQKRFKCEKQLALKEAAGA
| Strand | median fluorescence |
| --- | --- |
| GAGGCCCGGTAACCAACGCCTCCTGGCGTTGGTTACCGGGCCTCACACTC (5mC at 37) | 3370 a.u. |
| GAGGCCATGTAAACAACGCCTCCTGGCGTTGTTTACATGGCCTCACACTC (5mC at 17) | 4710 a.u. |
| GAGGCCATGCCAACAACGCCTCCTGGCGTTGTTGGCATGGCCTCACACTC (5mC at 11) | 3260 a.u. |
| GAGGCCACGCAAACAACGCCTCCTGGCGTTGTTTGCGTGGCCTCACACTC | 3770 a.u. |
| GAGGCCATGTAACGAACGCCTCCTGGCGTTCGTTACATGGCCTCACACTC (5mC at 31) | 3260 a.u. |
| GAGGCCATGCAAAGAACGCCTCCTGGCGTTCTTTGCATGGCCTCACACTC (5mC at 31) | 3090 a.u. |
| GAGGCCATGGAAACAACGCCTCCTGGCGTTGTTTCCATGGCCTCACACTC (5mC at 35) | 3170 a.u. |
| GAGGCCATCGAACCAACGCCTCCTGGCGTTGGTTCGATGGCCTCACACTC (5mC at 9) | 3230 a.u. |
| GAGGCCATGCAAACCGCGCCTCCTGGCGCGGTTTGCATGGCCTCACACTC (5mC at 15) | 3520 a.u. |
| GAGGCCATGTAACCACCGCCTCCTGGCGGTGGTTACATGGCCTCACACTC (5mC at 16) | 3230 a.u. |
| GAGGCCATGCAAACGACGCCTCCTGGCGTCGTTTGCATGGCCTCACACTC | 3470 a.u. |
| GAGGCCATTCAAACAACGCCTCCTGGCGTTGTTTGAATGGCCTCACACTC | 2970 a.u. |
| GAGGCCATGCAAATAACGCCTCCTGGCGTTATTTGCATGGCCTCACACTC | 3400 a.u. |
| GAGGCCATGTAAACAGCGCCTCCTGGCGCTGTTTACATGGCCTCACACTC | 4140 a.u. |
| GAGGCCGTGCAAACAACGCCTCCTGGCGTTGTTTGCACGGCCTCACACTC (5mC at 38) | 3780 a.u. |
| GAGGCCATGTATACAACGCCTCCTGGCGTTGTATACATGGCCTCACACTC | 3130 a.u. |

Block 2
Target: Histone acetyltransferase KAT6A, winged helix 1, GST fusion (KAT6A, Homo sapiens, UniProt Q92794, residues 1-85)
Technique: protein binding microarray
Molecule type: double-stranded DNA, one strand shown
Sample: in vitro
Tested at: not given
Notes: 8-mer, flanks averaged, mean of 2 arrays, mostly near background
Relative to: not given
Direction: higher = stronger binding
Residues (chain): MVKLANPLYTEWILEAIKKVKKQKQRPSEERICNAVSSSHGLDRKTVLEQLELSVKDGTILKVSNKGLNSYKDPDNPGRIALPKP
| Strand | E-score |
| --- | --- |
| GCCGAGAC | 0.154 |
| ACATATAC | -0.149 |
| CCTCCAAC | -0.218 |
| CCCAAGGA | -0.0756 |
| AGGGGCTA | -0.125 |
| CACTCCAG | -0.0763 |
| CCTCTTCG | 0.0205 |
| TTTAGAAA | 0.0368 |
| AAAATATC | -0.127 |
| AGGCACGA | -0.16 |
| CGTCTAGC | 0.00312 |
| ACCGCCGG | 0.472 |
| GCGGACCA | 0.236 |
| CTGGCTAA | -0.105 |
| GGTATGAA | -0.0471 |
| ATGTGCCG | 0.161 |
| AAAGTATG | -0.109 |
| ATACTGAC | -0.074 |
| CTATTGAA | -0.0339 |
| CAGCCAGC | -0.199 |

Block 3
Target: JUN, bZIP domain (human)
Technique: DHFR protein complementation
Sample: yeast
Notes: single substitutions, most at no-binding floor
Relative to: wild-type JUN-FOS pair
Direction: higher = stronger binding
Starting sequence: JUN, bZIP domain (human); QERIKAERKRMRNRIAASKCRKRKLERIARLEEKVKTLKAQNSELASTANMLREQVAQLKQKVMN
| Variant | binding fitness [natural log] |
| --- | --- |
| L38E | -1.42 |
| L38N | -1.28 |
| L38W | -1.3 |
| V35D | -1.39 |
| K36P | -1.31 |
| L31P | -1.42 |
| K39P | -1.27 |
| E54P | -1.22 |
| L38P | -1.33 |
| L45R | -1.27 |
| I28D | -1.27 |
| Q55P | -1.39 |
| L52C | -1.39 |
| M51P | -1.33 |
| L52H | -1.31 |

Block 4
Sequence: B1 (RING1 RING domain)
Technique: yeast two-hybrid
Sample: yeast
Notes: mostly zero background
Relative to: not given
Direction: higher = stronger interaction
B1: RING1 RING domain (UniProt Q06587); chain SPRSLHSELMCPICLDMLKNTMTTKECLHRFCSDCIVTALRSGNKECPTCRKKLVSKRSLR
| target | lacZ reporter activity |
| --- | --- |
| UBE2D4 UBC core domain (UniProt Q9Y2X8) | 0 |
| UBE2D2 UBC core domain (UniProt P62837) | 0 |
| UBE2J2 UBC core domain (UniProt Q8N2K1) | 0 |
| UBE2C UBC core domain (UniProt O00762) | 0 |
| UBE2T UBC core domain (UniProt Q9NPD8) | 0 |
| BIRC6 UBC core domain (UniProt Q9NR09) | 0 |
| UBE2B UBC core domain (UniProt P63146) | 0 |
| UBE2M UBC core domain (UniProt P61081) | 0 |
| UBE2L3 UBC core domain (UniProt P68036) | 0 |

Block 5
Target: ABI1, truncated, D143A, DHFR fusion (Arabidopsis thaliana)
Technique: DHFR PCA, deep sequencing
Sample: yeast
Notes: methotrexate growth selection, single substitutions
Together with: (+)-ABA 0.11 µM
Relative to: wild-type fitted maximum
Direction: higher = stronger binding
Starting sequence: PYL1, truncated, DHFR fusion (Arabidopsis thaliana); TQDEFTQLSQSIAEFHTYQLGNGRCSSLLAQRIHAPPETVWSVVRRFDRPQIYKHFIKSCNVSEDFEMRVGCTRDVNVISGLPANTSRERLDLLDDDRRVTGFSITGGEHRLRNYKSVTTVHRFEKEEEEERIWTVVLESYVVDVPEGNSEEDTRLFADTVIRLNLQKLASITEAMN
| Variant | relative binding score |
| --- | --- |
| N165T | 5.98% |
| A30P | 3.45% |
| I12E | -2.92% |
| S80Y | 64.1% |
| S171Y | 25.6% |
| M176D | 13.7% |
| A175Q | 40.5% |
| V44S | -1.56% |
| R98W | 4.73% |
| S140I | -0.564% |
| S42K | 20.7% |
| G81Y | -3.13% |
| E174K | -1.13% |
| T154A | 0.675% |
| I162C | 8.48% |
| T39L | 51.2% |
| V70P | 39.4% |
| R99V | 1.84% |

Block 6
Target: CCNA2, cyclin fold, Cln2 fusion (human)
Technique: yeast growth competition, sequencing
Sample: yeast
Notes: strong parent motif
Relative to: not given
Direction: higher = stronger binding
Starting sequence: PKN2 docking peptide (human); VSAVRKLDFSDTM; partner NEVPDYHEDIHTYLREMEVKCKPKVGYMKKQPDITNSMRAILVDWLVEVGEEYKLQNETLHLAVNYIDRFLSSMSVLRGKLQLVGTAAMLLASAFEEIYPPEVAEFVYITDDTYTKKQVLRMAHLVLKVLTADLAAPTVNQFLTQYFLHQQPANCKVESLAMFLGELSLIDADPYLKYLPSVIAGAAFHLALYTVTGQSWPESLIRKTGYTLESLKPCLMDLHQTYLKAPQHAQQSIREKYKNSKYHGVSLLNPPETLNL
| Variant | normalised enrichment score |
| --- | --- |
| VSAVRKLTFSDTM [D8T] | 4.82 |
| VSAVRKYDFSDTM [L7Y] | 0.0587 |
| VSAVRILDFSDTM [K6I] | 3.15 |
| VSAVRKLDGSDTM [F9G] | 0.477 |
| VSAVRFLDFSDTM [K6F] | 4.4 |
| VSKVRKLDFSDTM [A3K] | 1.88 |
| VSAVRKLRFSDTM [D8R] | 4.35 |
| VSAVRKHDFSDTM [L7H] | 0.257 |
| VSAVRKLQFSDTM [D8Q] | 5.05 |
| VYAVRKLDFSDTM [S2Y] | 4.67 |
| VSAVRKLFFSDTM [D8F] | 3.91 |
| VSAVRKLDYSDTM [F9Y] | 3.67 |
| VSAVRKLDFSHTM [D11H] | 4.61 |
| VSAVRKLDFWDTM [S10W] | 5.29 |
| VSAVYKLDFSDTM [R5Y] | 0.514 |
| VSAVRKLDCSDTM [F9C] | -0.112 |
| VSAVRKVDFSDTM [L7V] | 0.509 |
| VSAVRKLDFSQTM [D11Q] | 5.15 |
| VSAVRWLDFSDTM [K6W] | 3.72 |
| VSAVCKLDFSDTM [R5C] | 3.09 |
| VSAVRKKDFSDTM [L7K] | 0.219 |
| VSAVRKLDFSDMM [T12M] | 5.2 |
| VSAVRKLDFSETM [D11E] | 4.94 |
| VSAVRKLDWSDTM [F9W] | 3.38 |
| VSAVRPLDFSDTM [K6P] | -0.123 |

A few entries again (block 6):
| Variant | normalised enrichment score |
| --- | --- |
| VSAVRKLQFSDTM [D8Q] | 5.05 |
| VYAVRKLDFSDTM [S2Y] | 4.67 |
| VSAVRKLFFSDTM [D8F] | 3.91 |
| VSAVRKLDYSDTM [F9Y] | 3.67 |
| VSAVRKLDFSHTM [D11H] | 4.61 |
| VSAVRKLDFWDTM [S10W] | 5.29 |
| VSAVYKLDFSDTM [R5Y] | 0.514 |
| VSAVRKLDCSDTM [F9C] | -0.112 |
| VSAVRKVDFSDTM [L7V] | 0.509 |
